Measurements pooled from the literature.
Every numbered part comes from another study and shows a few of its results, in no order. Substitutions count along the parent as printed.

Sample 1 — target: CCNB2, cyclin fold, Cln2 fusion (human); method: yeast growth competition, sequencing; sample: yeast; setting: strong parent motif; baseline: not given; reading: higher = stronger binding
Starting sequence: E2F1 docking peptide (human); PPVKRRLDFETDH; partner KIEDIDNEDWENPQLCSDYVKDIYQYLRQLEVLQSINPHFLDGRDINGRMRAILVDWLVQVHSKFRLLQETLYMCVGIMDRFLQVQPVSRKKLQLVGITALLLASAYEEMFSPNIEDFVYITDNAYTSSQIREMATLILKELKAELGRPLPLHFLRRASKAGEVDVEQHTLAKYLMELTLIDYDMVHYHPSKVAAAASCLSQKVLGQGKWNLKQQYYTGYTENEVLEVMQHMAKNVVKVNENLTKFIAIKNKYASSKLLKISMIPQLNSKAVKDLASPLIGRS
Substitution | normalised enrichment score
PNVKRRLDFETDH [P2N] | 3.1
PPVARRLDFETDH [K4A] | 3.17
PQVKRRLDFETDH [P2Q] | 3.05
PWVKRRLDFETDH [P2W] | 1.57
PPVKRRMDFETDH [L7M] | 0.675
PPVKRLLDFETDH [R6L] | 1.43
PPVKRRLDMETDH [F9M] | 1.01
PPVKRVLDFETDH [R6V] | 2.94
PPVKRRLDHETDH [F9H] | 0.0345
PPVKRRLDGETDH [F9G] | 0.156
PPVKRRLDFERDH [T11R] | 3.16
PPVKIRLDFETDH [R5I] | 1.86
PPVKRRLDFEKDH [T11K] | 3.27
PPVKRRHDFETDH [L7H] | 0.0574
PPVKRRLDFETSH [D12S] | 3.21
PPVKRRLDFYTDH [E10Y] | 3

Sample 2 — method: RNA Bind-n-Seq; molecule type: RNA; sample: in vitro; tested at: 365 nM; baseline: no-protein control; reading: higher = stronger binding
Target: RNA binding protein fox-1 homolog 2, RRM domain, GST-SBP tag (RBFOX2, Homo sapiens, UniProt O43251-10, residues 100-194)
Setting: natural RNA segment, single round, ends assumed
All sequences stand within: GGGAGUUCUACAGUCCGACGAUC … UGGAAUUCUCGGGUGCCAA
Construct (chain): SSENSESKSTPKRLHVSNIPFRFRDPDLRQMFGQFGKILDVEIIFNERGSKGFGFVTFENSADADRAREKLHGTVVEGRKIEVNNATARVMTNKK
Sequence | RBNS enrichment (R)
UUAAGGGCCGGGGAUGGAUCUUUUCUAAAUGUUAUUACUUGUAAAUAAAGUCUAUUUUUCUCCCGUGGUACUGAGUUGACUUGAUCGGUGUGGGAAAAAGAGGAAUAUAG | 1.33
UUAUGGCAGAUUUCAAGAUCACGUGACAAUGCAGUCUCUAAUUGUUCACUGUCCAUAUAUAUGAUUUUACGGAAUUAUGAAUUUUUCUGAUGAGUGUUGUAUAGAUGAUU | 0.871
UAGCCCAGAAAAUCCACACCUUUUGUCCUUUUUAUGUUUUAAUUUGAAUAAUCAUGUGCUUAGUCCCUUGGAUUACUGCCACAUCAGUUUAACACGAUAUCAGCACAUUC | 0.326
CUCUGGCUCAGGUUGCUCAAAGCACAGAUCCUCUCUUACCCCGUCCCCAGGUUUGAAACACAUAGCCUCAUUUCAAGGUGUAGCCAGGUUCCCCCGACUUUCCUCUGGGA | 0.418
UAUUAUAUUCUUUAAACUUACUGUUUUACAAAAUUGAGCUCAUCGUAAAUGUCUAGUCUUCUCACAUAGAGAUUAACCAACAAACUUGUGUGGCUGACUUUUGUGUAAGA | 0.473
CACACGAAAGCUAAGCUGGUGGCCUUCCCCGCCAGCCCCUCGCAGGAUGGGGGUUUCAAUGUGAAACAUAUGCCAGUUUUUGUUCUUUUUUUUUUUUUUUAUGCUGCUUU | 1.38
CUGAGAAAUAGAAGCUAAAGAAUAAUUAGAGCUGAAAGGCUUCCUUAUAUCAAACCAUCUAACAUUUUUCUUAGGGCUGUUAAACUAGACAUAAAAUUGAUUUAUCUUUC | 0.376
AGAAAGAAAAAAUAGCAGCUUUCAGUGCUUCACAGUGAAGGGAAAAAAGCCUAGACAAACAUUUUGUCAGAACCUUGCGAAAUGCCAAGGUAUUACCAGUAAAUUGGUUG | 0.445
CAUAGGCCCGGCAUGGCUGUCGCUGGACGCCAGCUGUGCACACCCAGCCACACCUGCUGCACGCCGCGUUAGUGUGCGGCUCCGGGCCUGAGCAUUCGCAAAGCUCGCUU | 0.55
AGAAUUGCAUUCAUGGCUUUCAAUUGUAAAUAUGCUAAGGGUAUUUUAAUAAAUCUUGGUUUCAUGUCAUCUGGUGUGCAAUGCAGAUUUGUUUUCAGGAGGCAUGUAAA | 1.06
CAUUUGUUCACAGGAGUUUUUGGUGCGGGGUGGGAAGGAUGGAAGGCCUUGGAUUUAUAUUGCACUUCAUAGACCCCUAGGCUGCUGUGCGGUGGGACUCCACAUGCGCC | 3.19
CUCCAAUGUGCAUUGUGGACUCGCCAGAGUAGCCUGCAUUGAGACUCCAAGAAAACAGAAGCUAUGUGGCCUCUGAUCCCCAAACUGGCCUGGGUGGGGACAUGCCUUGA | 1.51

Sample 3 — method: protein-binding microarray; molecule type: double-stranded DNA, one strand shown; sample: in vitro; tested at: 2540 nM top; setting: 60-bp whole probe; added: salmon DNA 0.4 mg/ml; baseline: random background probes; reading: higher = stronger binding; all sequences stand within: GCCTAGCAC … GTCTTGATTCGCTTGACGCTGCTG
Target: Interferon regulatory factor 3, full length, phosphomimetic (IRF3, Homo sapiens, UniProt Q14653, residues 1-427, S386D/S396D/S398D/S402D/T404D/S405D)
Residues (chain): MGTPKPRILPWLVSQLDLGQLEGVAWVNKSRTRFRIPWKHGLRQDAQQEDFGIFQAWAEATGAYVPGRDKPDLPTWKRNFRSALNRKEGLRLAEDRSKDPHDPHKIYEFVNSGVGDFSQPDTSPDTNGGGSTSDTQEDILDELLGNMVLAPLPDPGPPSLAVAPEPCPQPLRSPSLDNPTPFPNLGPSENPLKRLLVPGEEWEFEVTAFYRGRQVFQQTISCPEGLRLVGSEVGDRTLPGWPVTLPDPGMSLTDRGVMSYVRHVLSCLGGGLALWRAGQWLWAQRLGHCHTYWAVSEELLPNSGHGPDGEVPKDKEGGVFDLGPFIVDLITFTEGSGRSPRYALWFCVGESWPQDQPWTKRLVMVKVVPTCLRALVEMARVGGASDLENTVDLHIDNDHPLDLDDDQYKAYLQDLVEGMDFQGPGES
Sequence | fitted relative affinity [z-score]
TCATGTTTCTGTGTCACACTGTGCTAG | 2.19
TTAGGTTTAGGGACTGGGTTAGTGCTA | -0.582
TCATCTTTCCACTTGTCACTGTGCTAG | 2.08
TTAGGTATGGGGTATCGGTTAGTGCTA | -0.00592
TTTTTTTTTTTTTTTTTTACGTGCTAG | 1.55
TTAGGTTTCGGTTCAGGTTAGTGCTAG | 8.89
TTGGAACTGAGTTTCGATTAGTGCTAG | 2.29
TCATTTTTCTAACCCATACTGTGCTAG | 2.2
TTAGATCTCAGTTTCGAATAGTGCTAG | 2.91
TTAGAACTGTGGACTGGATTAGTGCTA | -0.628
GACGGACTGGACTTTCGCGACGTGCTA | -0.439
GCCGGTTTCGACTATCGGGACGTGCTA | 3.3
TCACCTCTCAACCATCCTACTGTGCTA | 0.561
TTAGATCTCAGACTGGATTAGTGCTAG | 0.0878
TTAGGTATCGGGACTGCGTTAGTGCTA | 1.06
TTCGGACTGGGACTGGGTTAGTGCTAG | -0.76
GACGGACTGCTTTTCCTCACGTGCTAG | 0.0923
TTAGGACTGGGTCTCCGTTAGTGCTAG | -0.561

Sample 4 — target: UBE2N UBC core domain (UniProt P61088); method: yeast two-hybrid; sample: yeast; setting: mostly zero background; baseline: not given; reading: higher = stronger interaction
B1: NHLRC1 RING domain (UniProt Q6VVB1); chain MREAEISLLECKVCFEKFGHRQQRRPRNLSCGHVVCLACVAALAHPRTLALECPFCRRACRGCDTSD
B2: TRIM32 RING domain (UniProt Q13049); chain NLDALREVLECPICMESFTEEQLRPKLLHCGHTICRQCLEKLLASSINGVRCPFCSKITRITSLTQ
B3: RNF7 RING domain (UniProt Q9UBF6); chain AICRVQVMDACLRCQAENKQEDCVVVWGECNHSFHNCCMSLWVKQNNRCPLCQQDWVVQRIGK
B4: UBE4B RING domain (UniProt O95155); chain KNARAEIDYSDAPDEFRDPLMDTLMTDPVRLPSGTIMDRSIILRHLLNSPTDPFNRQTLTESMLEPVPELKEQIQAWMREKQNSDH
B5: RNF32 RING domain (UniProt Q9H0A6); chain VQALRRETHECSICLAPLSAAGGQRVGAGRRSREMALLSCSHVFHHACLLALEEFSVGDRPPFHACPLCRSCYQKKILEC
Target sequence (chain): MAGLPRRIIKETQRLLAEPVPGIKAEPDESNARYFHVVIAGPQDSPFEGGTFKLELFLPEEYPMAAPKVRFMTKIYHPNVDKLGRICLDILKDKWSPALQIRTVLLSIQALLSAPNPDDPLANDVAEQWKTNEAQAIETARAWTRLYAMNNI
Sequence | lacZ reporter activity
B1 (NHLRC1 RING domain) | 0
B2 (TRIM32 RING domain) | 11200
B3 (RNF7 RING domain) | 0
B4 (UBE4B RING domain) | 0
B5 (RNF32 RING domain) | 0
AAQLLEEKLTCAICLGLYQDPVTLPCGHNFCGACIRDWWDRCGKACPECREPFPDGAELR (TRIM65 RING domain (UniProt Q6PJ69)) | 0
PLRRLQEEKLCKICMDRHIAVVFIPCGHLVTCKQCAEAVDRCPMCSAVIDFKQRVF (BIRC8 RING domain (UniProt Q96P09)) | 0

Sample 5 — method: universal PBM; molecule type: double-stranded DNA, one strand shown; sample: in vitro; tested at: 600 nM; reading: higher = stronger binding
Target: Sal-like protein 4, full length isoform A (SALL4, Homo sapiens, UniProt Q9UJQ4, residues 1-1053)
UniProt Q9UJQ4, sequence (whole entry, looked up): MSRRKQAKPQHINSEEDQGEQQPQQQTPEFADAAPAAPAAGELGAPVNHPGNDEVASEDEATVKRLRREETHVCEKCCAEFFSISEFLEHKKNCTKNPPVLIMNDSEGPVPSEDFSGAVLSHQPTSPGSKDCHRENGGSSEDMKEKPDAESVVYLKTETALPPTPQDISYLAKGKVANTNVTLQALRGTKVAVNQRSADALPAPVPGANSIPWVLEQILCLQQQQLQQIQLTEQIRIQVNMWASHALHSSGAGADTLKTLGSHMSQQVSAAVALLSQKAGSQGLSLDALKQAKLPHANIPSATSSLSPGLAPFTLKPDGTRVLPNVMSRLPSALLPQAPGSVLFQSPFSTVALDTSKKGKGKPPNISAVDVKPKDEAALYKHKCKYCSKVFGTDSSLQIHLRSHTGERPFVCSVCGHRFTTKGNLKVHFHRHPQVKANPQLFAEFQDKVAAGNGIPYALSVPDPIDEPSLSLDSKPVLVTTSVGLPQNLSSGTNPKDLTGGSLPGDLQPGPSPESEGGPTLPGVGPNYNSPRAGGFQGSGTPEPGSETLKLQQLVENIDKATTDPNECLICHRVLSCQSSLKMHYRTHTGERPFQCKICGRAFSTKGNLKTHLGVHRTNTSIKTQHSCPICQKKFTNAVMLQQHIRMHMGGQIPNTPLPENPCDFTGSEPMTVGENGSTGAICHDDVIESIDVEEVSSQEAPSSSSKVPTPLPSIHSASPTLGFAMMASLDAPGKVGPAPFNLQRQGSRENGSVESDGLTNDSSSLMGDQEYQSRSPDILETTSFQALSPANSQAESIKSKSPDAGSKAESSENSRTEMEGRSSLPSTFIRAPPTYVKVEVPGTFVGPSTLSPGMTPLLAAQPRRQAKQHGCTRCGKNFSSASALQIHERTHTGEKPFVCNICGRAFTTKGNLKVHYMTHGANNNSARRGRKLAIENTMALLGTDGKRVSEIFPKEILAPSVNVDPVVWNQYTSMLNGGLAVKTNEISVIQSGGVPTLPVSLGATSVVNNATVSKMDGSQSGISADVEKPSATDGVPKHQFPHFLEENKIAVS
Setting: 8-mer, flanks averaged, mean of replicates
Sequence | E-score
CGGATTCA | 0.0331
GGTTCTAC | -0.0349
ACGGCGAC | -0.309
GGCTCTCA | -0.166
GAAGCATC | -0.0292
GACCTAAA | -0.00805
ATCAAGGG | 0.00685
AGCGGCCA | -0.327
CCCCCACG | -0.255
GAATACAA | 0.209
ACGGTCAT | -0.0056
CGCTGTAA | 0.0944
ATTTATGG | 0.374
GAAAGCGC | -0.227
CATATCAA | 0.354
ATCTTCGC | 0.0437
CGAAATCC | 0.0105
AGAACCCT | -0.242

A few entries again (sample 1):
Substitution | normalised enrichment score
PPVKRRHDFETDH [L7H] | 0.0574
PPVKRRMDFETDH [L7M] | 0.675
PPVKRRLDFYTDH [E10Y] | 3
PPVKRRLDFERDH [T11R] | 3.16
